Experimental data from different studies.
Every numbered part comes from another study and shows a few of its results, in no order. Changes are numbered by the printed parent chain.

Sample 1 — target: CCNA1, cyclin fold, Cln2 fusion (human); method: yeast growth competition, sequencing; medium: yeast; notes: weak parent motif; reference: not given; direction: higher = stronger binding
Starting sequence: E2F1 docking peptide (human); PPVKRRLDLETDH
Change	normalised enrichment score
D12K	0.435
E10S	0.293
K4M	0.521
T11Q	0.284
D12G	0.41

Sample 2 — method: protein binding microarray; form: double-stranded DNA, one strand shown; medium: in vitro; tested at: not given; reference: not given; direction: higher = stronger binding
Target: Histone acetyltransferase KAT6A, both winged helices, GST fusion (KAT6A, Homo sapiens, UniProt Q92794, residues 1-181)
Notes: 8-mer, flanks averaged, mean of 2 arrays, mostly near background
Construct (chain): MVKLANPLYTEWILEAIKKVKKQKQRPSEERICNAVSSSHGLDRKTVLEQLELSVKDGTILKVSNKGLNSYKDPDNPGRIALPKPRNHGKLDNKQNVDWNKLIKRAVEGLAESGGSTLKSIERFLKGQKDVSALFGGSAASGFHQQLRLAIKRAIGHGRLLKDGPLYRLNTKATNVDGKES
Strand	E-score
CGGCGACC	0.308
CATAACGA	-0.0515
ATCGGGTC	0.15
ACAATCAT	-0.189
CCTGTGCC	-0.0236
AGATGGGG	-0.248
CCGGCTGC	0.154

Sample 3 — method: protein-binding microarray; form: double-stranded DNA, one strand shown; medium: in vitro; tested at: 250 nM; notes: 60-bp whole probe; with: salmon DNA 0.4 mg/ml; reference: random background probes; direction: higher = stronger binding
Target: Interferon regulatory factor 5, full length, phosphomimetic (IRF5, Homo sapiens, UniProt Q13568-2, residues 1-514, K96S/S451D/S453D/S456D/S462D)
Strand	log fluorescence
GCCTAGCACAACGGTATCCTACTGCTGACGTGCTAGGTCTTGATTCGCTTGACGCTGCTG	0.0829 z-score
GCCTAGCACTTAGGTCTCGGTATCAGTTAGTGCTAGGTCTTGATTCGCTTGACGCTGCTG	1.63 z-score
GCCTAGCACGAAGATTTCGATTACAAAAAGTGCTAGGTCTTGATTCGCTTGACGCTGCTG	6.17 z-score
GCCTAGCACTTAGGACGGGACTATCGGTTAGTGCTAGTCTTGATTCGCTTGACGCTGCTG	6.36 z-score

Single results of other studies
Substance	target	assay	test system	conditions	scale	quantity	result
PhoQ, residues 284 288 289 292 302 303 GNNTDL	PhoP, residues 12 14 15 18 19 AWHSL (Escherichia coli, UniProt P23836)	Sort-seq, refers to: YFP reporter	E. coli	PhoQ-PhoP variant library, with: 10 µM Mg2+	reference: high Mg2+ state, higher = stronger signaling	fold induction	0.544
